Assay results from different studies.
Lines come from different studies, so protocols differ.

Structure (SMILES) = CCC(C)n1ncn(-c2ccc(N3CCN(c4ccc(OCC5COC(Cn6cncn6)(c6ccc(Cl)cc6Cl)O5)cc4)CC3)cc2)c1=O (centres unmarked); test system = healthy human volunteers; setting = oral, 200 mg, compound alone cohort; endpoint = incidence of nasal congestion; value = 0%
Structure (SMILES) = CNCc1ccc(-c2[nH]c3cc(F)cc4c3c2CCNC4=O)cc1; test system = human patients; setting = oral, dose not given, all grades, all doses; endpoint = incidence of anaemia (haemoglobin decreased); value = 30.4%
Structure (SMILES) = CC1(C)CC[C@]2(NC(=O)C(C)(F)F)CC[C@]3(C)[C@H](C(=O)C=C4[C@@]5(C)C=C(C#N)C(=O)C(C)(C)[C@@H]5CC[C@]43C)[C@@H]2C1; test system = human; setting = oral, dose not given; endpoint = incidence of urinary retention; value = 0%
Structure (SMILES) = Cn1cnc2ccc(Nc3c(F)ccc(NS(=O)(=O)N4CC(F)C4)c3Cl)c(Cl)c2c1=O; test system = human; setting = dose not given, monotherapy, first-in-human; scale = reference: participants; endpoint = incidence of blurred vision; value = 4%
Structure (SMILES) = CC[C@H](C)[C@H](NC(=O)[C@H](Cc1ccccc1)NC(=O)[C@H](CCC(=O)O)NC(=O)[C@H](CCCCNC(=O)COCCOCCNC(=O)COCCOCCNC(=O)CC[C@H](NC(=O)CCCCCCCCCCCCCCCCC(=O)O)C(=O)O)NC(=O)[C@H](C)NC(=O)[C@H](C)NC(=O)[C@H](CCC(N)=O)NC(=O)CNC(=O)[C@H](CCC(=O)O)NC(=O)[C@H](CC(C)C)NC(=O)[C@H](Cc1ccc(O)cc1)NC(=O)[C@H](CO)NC(=O)[C@H](CO)NC(=O)[C@@H](NC(=O)[C@H](CC(=O)O)NC(=O)[C@H](CO)NC(=O)[C@@H](NC(=O)[C@H](Cc1ccccc1)NC(=O)[C@@H](NC(=O)CNC(=O)[C@H](CCC(=O)O)NC(=O)C(C)(C)NC(=O)[C@@H](N)Cc1cnc[nH]1)[C@@H](C)O)[C@@H](C)O)C(C)C)C(=O)N[C@@H](C)C(=O)N[C@@H](Cc1c[nH]c2ccccc12)C(=O)N[C@@H](CC(C)C)C(=O)N[C@H](C(=O)N[C@@H](CCCNC(=N)N)C(=O)NCC(=O)N[C@@H](CCCNC(=N)N)C(=O)NCC(=O)O)C(C)C; test system = human, type 2 diabetes; setting = dose not given, blood glucose-confirmed, during treatment; scale = reference: subjects; endpoint = incidence of severe hypoglycaemia; value = 0%
Structure (SMILES) = CO[C@H]1/C=C/O[C@@]2(C)Oc3c(C)c(O)c4c(O)c(c(/C=N/N5CCN(C)CC5)c(O)c4c3C2=O)NC(=O)/C(C)=C\C=C\[C@H](C)[C@H](O)[C@@H](C)[C@@H](O)[C@@H](C)[C@H](OC(C)=O)[C@@H]1C; test system = healthy human volunteers; setting = oral, 600 mg, itraconazole cohort, added: gepotidacin 1500 mg; endpoint = incidence of ALT increased; value = 0%
Structure (SMILES) = C[C@@H](Oc1ccc(S(C)(=O)=O)cc1C(=O)N1C[C@@H]2C[C@]2(c2cc(C(F)(F)F)on2)C1)C(F)(F)F; test system = human; setting = oral, 25 mg; endpoint = incidence of Conjunctivitis; value = 16.7%
Structure (SMILES) = CC(C)n1c(Nc2cccnc2)nc2cnc(Nc3ccc(N4CCN(C)CC4)cc3)nc21; test system = healthy human, male; setting = concentration not given, all three DDI studies; endpoint = incidence of oral ulcers TEAE; value = 11.9%

Repeated from above:
Structure (SMILES) = CC1(C)CC[C@]2(NC(=O)C(C)(F)F)CC[C@]3(C)[C@H](C(=O)C=C4[C@@]5(C)C=C(C#N)C(=O)C(C)(C)[C@@H]5CC[C@]43C)[C@@H]2C1; test system = human; setting = oral, dose not given; endpoint = incidence of urinary retention; value = 0%
